Measurements collected from several papers.
Protocols differ between the studies behind these lines.
Target: Serine/threonine-protein kinase ULK1 (ULK1, Homo sapiens, UniProt O75385)

SMILES | assay | test system | setting | how to read | quantity | value
Clc1ccc(COC(Cn2cncn2)c2ccc(Cl)cc2Cl)cc1 (stereo not shown) | enzyme activity, inhibitor, ADP detection |  | 0.1 µM |  | activity vs control | 105%
C=CC(=O)N1Cc2nc(-c3cc(-c4cc(Cl)cnc4Cl)c(F)cc3F)n(-c3ccncn3)c2C1 | cell-free assay, inhibitor |  | 1 µM |  | inhibition | 3.7%
NC(=O)C[C@H]1CCc2sc3ncnc(O[C@H]4CC[C@H](N5CCOCC5)CC4)c3c21 | enzyme activity, inhibitor |  | 10 µM |  | inhibition | -2%
CCN1CCN(Cc2ccc(NC(=O)c3ccc(C)c(NC(=O)c4cncc(-c5cnn(C)c5)c4)c3)cc2C(F)(F)F)CC1 | binding, competition with immobilised ligand |  | 1 µM |  | remaining binding | 100%
C[C@]1(O)CCCN(c2nc(Nc3ccc(S(=O)(=O)N[C@H]4CC[C@H](CN5CCN(c6ccc(C7CCC(=O)NC7=O)cc6F)CC5)CC4)cc3)ncc2C(F)(F)F)C1 (stereo partly shown) | binding, competition with immobilised ligand |  | 1 µM |  | remaining binding | 1.3%
CN1CCN(Cc2ccc(-c3ccc(CO[C@H]4CCC[C@@H]4NC(=O)c4cc(-c5cnn(C)c5)cnc4N)cc3)cc2)CC1 | enzyme activity, inhibitor |  | 0.1 µM |  | inhibition | 7%
CC(C)=CC1OC(C)(C)C2C=C3C(=O)C(Cl)=CC(O)C3C3C(O)C4OC4C(=O)C132 (stereo not shown) | cell-free assay, competition with immobilised ligand |  | 10 µM |  | remaining binding | 62%
C=CC(=O)N1CCc2ccc(-n3c(=O)ccc4cnc5ccc(-c6cnn(C)c6)cc5c43)cc21 | KINOMEscan |  | 1 µM | relative to: DMSO control | remaining binding | 100%
Cc1nc2c(F)cc(-c3nc(Nc4ccc(CNC(=O)CCCCCCC(=O)NO)cc4)ncc3F)cc2n1C(C)C | enzyme activity, inhibitor |  | 1 µM |  | inhibition | 34%
CCN1CCN(CC(=O)N2CCN(CC(OCc3ccc4ccccc4c3)c3ccc(Cl)cc3Cl)CC2)CC1 (stereo not shown) | enzyme activity, inhibitor, ADP detection |  | 0.1 µM |  | activity vs control | 118%
Nc1ncc2c(n1)-c1c([nH]c3ccc(C4=CCOCC4)cc13)CCC2 | binding, competition with immobilised ligand |  | 1 µM |  | remaining binding | 95%
O=C(c1ccc(Br)cc1)N1CCN(CC(OCc2ccc3ccccc3c2)c2ccc(Cl)cc2Cl)CC1 (stereo not shown) | enzyme activity, inhibitor, ADP detection |  | 0.1 µM |  | activity vs control | 109%
Cc1cnc2nc1Nc1cccc(c1)COC/C=C/COCc1cc(ccc1OCCN1CCOCC1)N2 | cell-free assay |  | 0.1 µM |  | remaining signal | 96%
O=C(c1ccc(Cl)cc1Cl)N1CCN(CC(OCc2ccc3ccccc3c2)c2ccc(Cl)cc2Cl)CC1 (stereo not shown) | enzyme activity, inhibitor, ADP detection |  | 0.1 µM |  | activity vs control | 115%
COc1cc(Nc2nccc(-c3cnn4nc(OC)ccc34)n2)cc(C(F)(F)F)c1 | binding, competition with immobilised ligand |  | 1 µM |  | remaining binding | 89%
Clc1ccc(C(Cn2ccnc2)OCc2ccc(Br)cc2)c(Cl)c1 (stereo not shown) | enzyme activity, inhibitor, ADP detection |  | 0.1 µM |  | activity vs control | 110%
Cc1ccc(C(=O)Nc2ccc(CN3CCN(C)CC3)c(C(F)(F)F)c2)cc1C#Cc1cnc2cccnn12 | target engagement, NanoBRET | human cells |  |  | Hill slope | 46.9
COc1ccc(C(=O)N2CCN(CC(OCc3ccc4ccccc4c3)c3ccc(Cl)cc3Cl)CC2)cc1 (stereo not shown) | enzyme activity, inhibitor, ADP detection |  | 0.1 µM |  | activity vs control | 113%
CNC(=O)C1CCN(c2cc(C)c(F)cc2NC(=O)c2ccc(-c3cc(O)ccc3C)c(C)c2)CC1 | binding, competition with immobilised ligand |  | 1 µM |  | remaining binding | 92%

A few entries again:
SMILES | assay | test system | setting | how to read | quantity | value
CN1CCN(Cc2ccc(-c3ccc(CO[C@H]4CCC[C@@H]4NC(=O)c4cc(-c5cnn(C)c5)cnc4N)cc3)cc2)CC1 | enzyme activity, inhibitor |  | 0.1 µM |  | inhibition | 7%
O=C(c1ccc(Cl)cc1Cl)N1CCN(CC(OCc2ccc3ccccc3c2)c2ccc(Cl)cc2Cl)CC1 (stereo not shown) | enzyme activity, inhibitor, ADP detection |  | 0.1 µM |  | activity vs control | 115%
